Measurements pooled from the literature.
Numbered parts are unrelated; each lists some results of a single study.

Block 1 — Structure (SMILES): C=CCc1ccc(O)c(-c2ccc(O)c(CC=C)c2)c1; read-out: chloride current
ANO1 del476-501/F628A: Anoctamin-1 (ANO1, Homo sapiens, UniProt Q5XXA6, del476-501/F628A)
Sequence of UniProt Q5XXA6 (whole entry, unmodified, looked up): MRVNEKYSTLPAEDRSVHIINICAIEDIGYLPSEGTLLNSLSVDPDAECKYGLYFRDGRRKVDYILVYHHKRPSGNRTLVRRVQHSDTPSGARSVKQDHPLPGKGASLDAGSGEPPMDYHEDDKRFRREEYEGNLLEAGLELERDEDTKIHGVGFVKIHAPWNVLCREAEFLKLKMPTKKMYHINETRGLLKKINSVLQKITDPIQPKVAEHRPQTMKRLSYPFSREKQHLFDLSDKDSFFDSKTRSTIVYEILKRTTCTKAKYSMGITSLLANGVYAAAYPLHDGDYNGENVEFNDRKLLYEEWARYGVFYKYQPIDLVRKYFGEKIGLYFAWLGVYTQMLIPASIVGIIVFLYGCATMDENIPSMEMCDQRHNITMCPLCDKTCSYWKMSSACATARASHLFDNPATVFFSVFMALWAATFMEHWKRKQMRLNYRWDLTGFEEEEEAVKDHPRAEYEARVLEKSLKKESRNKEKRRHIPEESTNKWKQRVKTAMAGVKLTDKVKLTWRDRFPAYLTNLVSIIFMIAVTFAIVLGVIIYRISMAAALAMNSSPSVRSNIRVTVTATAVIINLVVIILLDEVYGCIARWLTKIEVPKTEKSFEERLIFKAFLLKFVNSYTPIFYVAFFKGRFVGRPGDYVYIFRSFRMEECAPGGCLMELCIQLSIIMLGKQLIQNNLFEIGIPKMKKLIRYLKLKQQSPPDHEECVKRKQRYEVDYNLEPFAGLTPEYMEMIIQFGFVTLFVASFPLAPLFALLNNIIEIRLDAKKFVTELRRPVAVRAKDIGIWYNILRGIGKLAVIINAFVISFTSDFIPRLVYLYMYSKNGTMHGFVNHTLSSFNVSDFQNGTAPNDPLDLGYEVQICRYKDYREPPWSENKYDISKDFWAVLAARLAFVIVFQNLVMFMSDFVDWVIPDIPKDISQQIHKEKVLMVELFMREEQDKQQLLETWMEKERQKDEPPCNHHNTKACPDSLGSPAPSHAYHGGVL
ANO1 del476-501: Anoctamin-1 (ANO1, Homo sapiens, UniProt Q5XXA6, del476-501)
ANO1 del476-501/K629A: Anoctamin-1 (ANO1, Homo sapiens, UniProt Q5XXA6, del476-501/K629A)
| target | assay | conditions | scale | normalized current |
| --- | --- | --- | --- | --- |
| Anoctamin-1 (ANO1, Homo sapiens, UniProt Q5XXA6) | inside-out patch clamp | 10 µM, membrane voltage -40 mV |  | -0.292 |
| ANO1 del476-501/F628A | whole-cell voltage clamp | 100 µM, I-V at -80 mV, added: 4 µM Ca2+ |  | -0.185 |
| ANO1 del476-501 | whole-cell voltage clamp | 10 µM, wild type, concentration-response at -60 mV, added: 4 µM Ca2+ |  | -0.166 |
| ANO1 del476-501 | whole-cell voltage clamp | 30 µM, wild type, concentration-response at 60 mV, added: 4 µM Ca2+ |  | 0.0368 |
| ANO1 del476-501 | whole-cell voltage clamp | 1 µM, wild type, concentration-response at 60 mV, added: 4 µM Ca2+ |  | 0.54 |
| ANO1 del476-501/K629A | inside-out patch clamp | 10 µM, membrane voltage 80 mV |  | 0.553 |
| ANO1 del476-501/F628A | inhibitor, whole-cell voltage clamp | 10 µM, F602A mutant |  | 0.908 |
| Anoctamin-1 (ANO1, Homo sapiens, UniProt Q5XXA6, del476-501/E659A) | inside-out patch clamp | 10 µM, membrane voltage 60 mV |  | 0.495 |
| ANO1 del476-501 | whole-cell voltage clamp | 1 µM, wild type, concentration-response at 20 mV, added: 4 µM Ca2+ |  | 0.172 |
| ANO1 del476-501 | whole-cell voltage clamp | 10 µM, wild type, I-V at -100 mV, added: 4 µM Ca2+ |  | -0.258 |
| ANO1 del476-501 | whole-cell voltage clamp | 3 µM, wild type, concentration-response at -100 mV, added: 4 µM Ca2+ |  | -0.607 |
| ANO1 del476-501/F628A | whole-cell voltage clamp | 3 µM, I-V at -20 mV, added: 4 µM Ca2+ |  | -0.143 |
| Anoctamin-1 (ANO1, Homo sapiens, UniProt Q5XXA6, del476-501/F807A) | inhibitor, whole-cell voltage clamp | 10 µM | relative to: untreated | 0.717 |
| TMEM16A (human) K603A/E623A | inside-out patch clamp | 10 µM, membrane voltage 80 mV |  | 0.546 |
| ANO1 del476-501/F628A | whole-cell voltage clamp | 1 µM, I-V at 100 mV, added: 4 µM Ca2+ |  | 0.974 |
| ANO1 del476-501/F628A | whole-cell voltage clamp | 1 µM, concentration-response at -40 mV, added: 4 µM Ca2+ |  | -0.379 |
| ANO1 del476-501/K629A | inhibitor, inside-out patch clamp | 10 µM, K603A mutant at -80 mV |  | 80.5 |
| ANO1 del476-501/F628A | whole-cell voltage clamp | 100 µM, concentration-response at -60 mV, added: 4 µM Ca2+ |  | -0.0917 |

Block 2 — cell line: A-375; tested at: 100 µM; time: 18 h
| Structure (SMILES) | viability [%] |
| --- | --- |
| CCOC(=O)Nc1ccc(NCc2ccc(F)cc2)nc1N | 104 |
| NC(=O)N1c2ccccc2CC(=O)c2ccccc21 | 79.9 |
| COc1cc2ccc(=O)oc2c(O)c1O | 109 |
| CC(=O)O[C@]1(C(C)=O)CC[C@H]2[C@@H]3C=C(Cl)C4=CC(=O)CC[C@]4(C)[C@H]3CC[C@@]21C | 37.3 |
| N#Cc1ccc(C(c2ccc(C#N)cc2)n2cncn2)cc1 | 111 |
| COc1ccc2cc(CCC(C)=O)ccc2c1 | 82.2 |
| CCN(CC)C(=S)SSC(=S)N(CC)CC | 67.4 |
| CO/N=C(\C(=O)N[C@@H]1C(=O)N2C(C(=O)O)=C(C[N+]3(C)CCCC3)CS[C@H]12)c1csc(N)n1 | 99.8 |
| CC(C)NCC(O)c1ccc(O)c(O)c1 (centres unmarked) | 131 |
| C[C@H]1CC[C@@]2(O)C(C)(C)[C@@H]3CC[C@@]2(C)[C@H]1C3 | 23.9 |
| Cc1ccc(Nc2nccc(N(C)c3ccc4c(C)n(C)nc4c3)n2)cc1S(N)(=O)=O | 68 |
| C[C@H](CCC(=O)O)[C@H]1CC[C@H]2[C@@H]3[C@H](O)C[C@@H]4C[C@H](O)CC[C@]4(C)[C@H]3C[C@H](O)[C@]12C | 84.1 |
| CCCCCNC(=N)N/N=C/c1c[nH]c2ccc(OC)cc12 | 8.8 |
| C[C@@H](Oc1cc(-c2cnn(C3CCNCC3)c2)cnc1N)c1c(Cl)ccc(F)c1Cl | 7.62 |
| NC(=O)c1cccnc1 | 92.7 |
| COc1cc2c(cc1OC)CC(=O)N(CCCN(C)C[C@H]1Cc3cc(OC)c(OC)cc31)CC2 | 93.4 |

Block 3 — method: CellTiter-Glo; tested at: 1 µM; time: 4 days; relative to: DMSO
Structure (SMILES): CCCCN(CCCC)C(=O)CN1C[C@@H](c2cc(OC)c3c(c2)OCO3)[C@H](C(=O)O)[C@H]1CC(C)(C)CCC
| cell line | viability |
| --- | --- |
| sample G normal colon organoid | 107% |
| sample E normal colon organoid | 136% |
| sample F normal colon organoid | 110% |

Block 4 — read-out: enzyme activity; mode: inhibitor; tested at: 0.5 µM; relative to: control
Target: Lymphokine-activated killer T-cell-originated protein kinase (PBK, Homo sapiens, UniProt Q96KB5)
Construct (Q96KB5 1-322): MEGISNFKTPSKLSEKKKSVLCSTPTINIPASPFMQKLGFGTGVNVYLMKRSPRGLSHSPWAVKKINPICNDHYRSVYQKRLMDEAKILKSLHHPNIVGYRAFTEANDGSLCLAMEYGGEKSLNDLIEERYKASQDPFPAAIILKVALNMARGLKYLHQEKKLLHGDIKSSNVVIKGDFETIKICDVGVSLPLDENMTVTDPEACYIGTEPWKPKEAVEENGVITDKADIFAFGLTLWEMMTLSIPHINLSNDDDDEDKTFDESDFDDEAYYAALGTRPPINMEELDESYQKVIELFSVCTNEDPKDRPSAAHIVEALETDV
| SMILES | remaining activity [%] |
| --- | --- |
| CC(=O)c1ccc(N2CCOCC2)cc1O | 113 |
| NC(=O)c1ccc(N(C(N)=O)c2c(F)cccc2F)nc1-c1ccc(F)cc1F | 110 |
| O=S(=O)(NCCNC/C=C/c1ccc(Br)cc1)c1cccc2cnccc12 | 107 |
| COc1cc(Nc2c(C#N)cnc3cc(OCCCN4CCN(C)CC4)c(OC)cc23)c(Cl)cc1Cl | 104 |
| CC(C)(C)n1nc(Cc2cccc3ccccc23)c2c(N)ncnc21 | 90.2 |
| Oc1ccc(Nc2nc(-c3ccc(Cl)cc3)cs2)cc1 | 100 |
| Fc1ccc(-c2nc3n(c2-c2ccncc2)CCS3)cc1 | 100 |
| Nc1nc(Nc2ccc(S(N)(=O)=O)cc2)nn1C(=O)c1c(F)cccc1F | 92.1 |
| CCc1[nH]c(-c2ccc(OC)cc2)nc1-c1ccncc1 | 104 |
| Cc1cncc2cccc(S(=O)(=O)N3CCCN(C(=O)CN)C[C@@H]3C)c12 | 98.6 |
| CSc1nc(-c2ccnc(N[C@@H](C)c3ccccc3)c2)c(-c2ccc(F)cc2)[nH]1 (racemic) | 109 |
| N#CC(=C(N)Sc1ccc(N)cc1)c1ccccc1C(F)(F)F | 95.3 |
| O=C1NC(=O)C(c2c[nH]c3ccccc23)=C1c1c[nH]c2ccccc12 | 100 |
| CC[n+]1c(/C=C/N(C)c2ccccc2)n(-c2ccccc2)c2ccc(-c3nc4ccccc4s3)cc21 | 107 |
| CCCC(=O)Oc1ccc2[nH]c(C(=O)c3cc4ccccc4[nH]3)cc2c1 | 104 |
| Cc1cc(Nc2nc(-c3ccccc3)nc3ccccc23)n[nH]1 | 95.4 |
| Nc1ncnc2c1cnn2-c1ccccc1 | 92.4 |
| Nc1nccc(-c2c(-c3ccc(F)cc3)ncn2C2CCNCC2)n1 | 94.9 |
| COc1ccc(S(=O)(=O)N(CCO)c2ccccc2CN(C)CC=Cc2ccc(Cl)cc2)cc1 | 95.3 |
| Cc1ccc(NC2=CC(=O)c3sc(C)nc3C2=O)cc1 | 85.8 |
| O=C1Cc2c([nH]c3ccc([N+](=O)[O-])cc23)-c2ccccc2N1 | 85.1 |
| CC#CC(=O)Nc1cc2c(Nc3ccc(F)c(Cl)c3)ncnc2cn1 | 99.9 |

Repeated from above (block 3):
| cell line | viability |
| --- | --- |
| sample G normal colon organoid | 107% |
| sample E normal colon organoid | 136% |
| sample F normal colon organoid | 110% |
